Published values pooled from the literature.
Lines come from different studies, so protocols differ. Several values in a cell are separate wells, animals, samples, runs or records. Numbers after ± are the reported error. Converted amounts (≈) assume the structure as drawn.
OPG122: mRNA-decapping protein OPG122 (OPG122, Vaccinia virus, UniProt P04312)
rep papain-like protease: Replicase polyprotein 1ab, papain-like protease (rep, Severe acute respiratory syndrome coronavirus 2, UniProt P0DTD1)
OPRD1: Delta-type opioid receptor (OPRD1, Homo sapiens, UniProt P41143)
TST: Thiosulfate sulfurtransferase (TST, Homo sapiens, UniProt Q16762)
rep nsp12 with nsp14/nsp10: Replicase polyprotein 1ab, nsp12 with nsp14/nsp10 (rep, Severe acute respiratory syndrome coronavirus 2, UniProt P0DTD1)

Structure (SMILES)	tested on	test	system	conditions	quantity	value
O=c1[nH]c(=O)c2ncn(C3OC(COP(=O)(O)OP(=O)(O)OP(=O)(O)O)C(O)C3O)c2[nH]1 (centres unmarked)	OPG122				Ki	> 0.8 µM
Cc1ccc(OCCN(C)C)cc1C(=O)N[C@H](C)c1cc(-c2cnn(C)c2)cc(-c2ccn(C)n2)c1	rep papain-like protease	protease activity, inhibitor, FlipGFP	SARS-CoV-2		EC50	2.9 ± 0.3 µM
CC[C@@H](C)[C@@H](NC(=O)[C@@H](CCCCN)NC(=O)[C@@H](CCCCN)NC(=O)[C@@H](CC(C)C)NC(=O)[C@@H](Cc1c[nH]c2ccccc12)NC(=O)CN)C(=O)NCC(=O)N[C@H](CCCCN)C(=O)N[C@H](CCCCN)C(=O)N[C@@H](C(=O)N[C@H](CCC(=O)O)C(=O)N[C@H](CCCNC(=N)N)C(=O)N[C@@H](C(=O)NCC(=O)N[C@H](CCC(N)=O)C(=O)N[C@H](Cc1c[nH]cn1)C(=O)N[C@@H](C(=O)N[C@H](CCCNC(=N)N)C(=O)N[C@H](CC(=O)O)C(=O)N[C@H](C)C(=O)N[C@@H](C(=O)N[C@@H](C(=O)N[C@H](CCC(N)=O)C(=O)N[C@@H](C(=O)N[C@@H](C(=O)NCC(=O)N[C@@H](C(=O)N[C@H](C)C(=O)N[C@H](CCC(N)=O)C(=O)N[C@H](CCC(N)=O)C(=O)N[C@H](C)C(=O)N[C@H](C)C(=O)N[C@H](CC(N)=O)C(=O)N[C@@H](C(=O)N[C@H](C)C(=O)N[C@H](C)C(=O)N[C@@H](C(=O)N[C@H](CC(C)C)C(=O)N[C@H](CCCCN)C(N)=O)[C@H](C)O)C(C)C)C(C)C)[C@H](C)CC)[C@H](C)O)[C@H](C)CC)[C@H](C)O)[C@H](C)O)C(C)C)[C@H](C)CC	Escherichia coli		isolate RKI 131/03, CAMHB		MIC	128 mg/L (≈ 30.5 µM)
CCOC(=O)C=CC(CC1CCNC1=O)NC(=O)C(CC(C)C)NC(=O)C(NC(=O)OCc1ccccc1)C(C)OC(C)(C)C (centres unmarked)	Replicase polyprotein 1ab, main protease (Bat coronavirus HKU9, UniProt P0C6W5)	viral replication			EC50	< 10 µM and 4.11 µM
C[C@H](c1cccc2ccccc12)N(C)Cc1ccc(O)cc1Cl	rep papain-like protease	enzyme activity in cells, inhibitor			EC50	10.2 µM
CC(C)C[C@H](NC(=O)[C@H](CO)NC(=O)[C@H](CCCCN)NC(=O)[C@H](CC(C)C)NC(=O)[C@H](C)NC(=O)[C@H](CCCCN)NC(=O)[C@H](CCC(=O)O)NC(=O)[C@H](C)NC(=O)[C@H](CC(C)C)NC(=O)[C@H](CC(N)=O)NC(=O)[C@@H]1CCCN1C(=O)[C@H](CC(C)C)NC(=O)[C@H](Cc1ccccc1)NC(=O)CNC(=O)[C@H](NC(=O)[C@@H](N)Cc1ccc(O)cc1)[C@H](C)O)C(N)=O	OPRD1	ligand displacement, radioligand		pH 7.5, cell membranes	Ki	0.016 µM
NC(=O)c1c(N)[nH]c(C(=O)c2ccccc2)c1-c1ccc(F)c(Oc2ccccc2)c1	TST	enzyme activity, activator, cyanide to thiocyanate conversion			EC50	2.7 ± 6.1 µM
CCCCCCCCCCCCCCCC(=O)N[C@@H](CCC(=O)NCCOCCOCCC(=O)NCCOCCOCCC(=O)NCCCC[C@H](NC(=O)[C@H](CC(=O)O)NC(=O)[C@H](CC(C)C)NC(=O)[C@H](Cc1ccc(O)cc1)NC(=O)[C@H](CCCCN)NC(=O)[C@H](CO)NC(=O)[C@H](Cc1ccc(O)cc1)NC(=O)[C@H](CC(=O)O)NC(=O)[C@H](CO)NC(=O)[C@@H](NC(=O)[C@H](Cc1ccccc1)NC(=O)[C@@H](NC(=O)CNC(=O)[C@H](CCC(N)=O)NC(=O)[C@@H](CO)NC(=O)[C@@H](N)Cc1c[nH]cn1)[C@@H](C)O)[C@@H](C)O)C(=O)N[C@@H](CCCNC(=N)N)C(=O)N[C@@H](CCCNC(=N)N)C(=O)N[C@@H](C)C(=O)N[C@@H](CCC(N)=O)C(=O)N[C@@H](CC(=O)O)C(=O)N[C@@H](Cc1ccccc1)C(=O)N[C@H](C(=O)N[C@@H](CCC(N)=O)C(=O)N[C@@H](Cc1c[nH]c2ccccc12)C(=O)N[C@@H](CC(C)C)C(=O)N[C@@H](CC(C)C)C(=O)N[C@@H](CC(N)=O)C(=O)N[C@H](C(=O)NCC(=O)NCC(=O)N1CCC[C@H]1C(=O)N[C@@H](CO)C(=O)N[C@@H](CO)C(=O)NCC(=O)N[C@@H](C)C(=O)N1CCC[C@H]1C(=O)N1CCC[C@H]1C(=O)N1CCC[C@H]1C(=O)N[C@@H](CO)C(N)=O)[C@@H](C)O)C(C)C)C(=O)O		measured: ALP	Sprague-Dawley rat, female	subcutaneous, 500 µg/kg once daily, 14 days	serum enzyme activity	86.3 ± 23.8 U/L
Cc1ccc(OCCN(C)C)cc1C(=O)N[C@H](C)c1cc(-c2cnn(C)c2)cc(-c2cnn(C(C)C)c2)c1	rep papain-like protease	protease activity, inhibitor, FlipGFP	SARS-CoV-2		EC50	0.8 ± 0.1 µM
Nc1ncnc2c1ncn2C1OC(COP(=O)(O)OP(=O)(O)OP(=O)(O)O)C(O)C1O (centres unmarked)	OPG122				Ki	0.34 µM
O=C(CSc1[nH]c2ccccc2c1SCC(=O)Nc1ccc(Cl)c(Cl)c1)Nc1ccc(Cl)c(Cl)c1	rep nsp12 with nsp14/nsp10	RdRp reporter activity, inhibitor, Gaussia luciferase reporter	HEK293T	24 h, together with: nsp7, nsp8, nsp10, nsp14	EC50	3.62 µM
CSc1ncnc2c1ncn2C1OC(COP(=O)(O)OP(=O)(O)OP(=O)(O)O)C(O)C1O (centres unmarked)	OPG122				Ki	> 0.8 µM
CC(C)C[C@H](NC(=O)[C@H](CO[C@@H]1O[C@H](CO)[C@@H](O[C@@H]2O[C@H](CO)[C@H](O)[C@H](O)[C@H]2O)[C@H](O)[C@H]1O)NC(=O)[C@H](CCCCN)NC(=O)[C@H](CC(C)C)NC(=O)[C@H](C)NC(=O)[C@H](CCCCN)NC(=O)[C@H](CCC(=O)O)NC(=O)C(C)(C)NC(=O)[C@H](CC(C)C)NC(=O)[C@H](CC(N)=O)NC(=O)[C@@H]1CCCN1C(=O)[C@H](CC(C)C)NC(=O)[C@H](Cc1ccccc1)NC(=O)CNC(=O)[C@H](NC(=O)[C@@H](N)Cc1ccc(O)cc1)[C@H](C)O)C(N)=O	OPRD1	ligand displacement, radioligand		pH 7.5, cell membranes	Ki	0.019 µM
CC(C)C[C@@H]1NC(=O)[C@H](CCCNC(=N)N)NC(=O)[C@@H]2CCCN2C(=O)[C@@H]2CSSC[C@H](NC(=O)CNC(=O)[C@@H]3CCCN3C(=O)[C@H](CCCCN)NC(=O)[C@H](CC(=O)O)NC(=O)[C@@H](NC(=O)CN)C(C)C)C(=O)N[C@@H](CCCNC(=N)N)C(=O)N[C@@H](Cc3ccc(O)cc3)C(=O)N[C@@H](CC(C)C)C(=O)N[C@@H](Cc3ccccc3)C(=O)NCC(=O)NCC(=O)N[C@H]3CSSC[C@H](NC(=O)CNC1=O)C(=O)N[C@@H](CCCCN)C(=O)NCC(=O)N[C@@H](CCCCN)C(=O)NCC(=O)N[C@@H](Cc1c[nH]cn1)C(=O)N[C@@H](CC(=O)O)C(=O)N[C@@H](Cc1ccc(O)cc1)C(=O)N[C@H](C(=O)N[C@@H](C)C(=O)N[C@@H](Cc1c[nH]c4ccccc14)C(=O)N[C@@H](CC(=O)O)C(=O)NCC(=O)N[C@H](C(=O)N[C@@H](Cc1ccccc1)C(=O)N[C@@H](CO)C(=O)N[C@@H](CC(=O)O)C(=O)O)[C@@H](C)O)CSSC[C@H](NC(=O)[C@H](CC(=O)O)NC(=O)[C@H](CC(=O)O)NC(=O)[C@H](CC(=O)O)NC(=O)[C@H](CO)NC(=O)[C@H](CCCCN)NC3=O)C(=O)N2	Sodium channel protein type 10 subunit alpha (SCN10A, Homo sapiens, UniProt Q9Y5Y9)	sodium current, potentiator		holding potential -80 mV	EC50	1.1 ± 0.1 µM
COCn1cc(-c2cc(-c3cnn(C(F)F)c3)cc([C@@H](C)NC(=O)c3cc(OCCN(C)C)ccc3C)c2)cn1	rep papain-like protease	protease activity, inhibitor, FlipGFP	SARS-CoV-2		EC50	2.6 ± 0.2 µM
COc1ccccc1CNC(=O)CSc1c[nH]c2ccccc12	rep nsp12 with nsp14/nsp10	RdRp reporter activity, inhibitor, Gaussia luciferase reporter	HEK293T	24 h, together with: nsp7, nsp8, nsp10, nsp14	EC50	2.52 µM
C[n+]1cn(C2OC(COP(=O)(O)OP(=O)(O)OP(=O)(O)OCC3OC(n4cnc5c(=O)[nH]c(N)nc54)C(O)C3O)C(O)C2O)c2nc(N)[nH]c(=O)c21 (centres unmarked)	OPG122	inhibitor			Ki	0.28 µM
CC(C)C[C@H](NC(=O)OCc1ccccc1)C(=O)N[C@H](C=O)C[C@@H]1CCNC1=O	Replicase polyprotein 1ab, 3C-like proteinase (rep, Middle East respiratory syndrome-related coronavirus, UniProt K9N7C7)	viral replication			EC50	4 µM and < 10 µM
COc1nc(N)nc2c1ncn2C1OC(COP(=O)(O)OP(=O)(O)OP(=O)(O)O)C(O)C1O (centres unmarked)	OPG122				Ki	> 0.8 µM
O=C(NCc1ccccc1)C(N[C@@H]1CCSC1=O)C1CC1 (single isomer, unassigned)	TST	enzyme activity, activator, cyanide to thiocyanate conversion			EC50	28.5 ± 5.9 µM

A few entries again:
Structure (SMILES)	tested on	test	system	conditions	quantity	value
CC(C)C[C@H](NC(=O)[C@H](CO[C@@H]1O[C@H](CO)[C@@H](O[C@@H]2O[C@H](CO)[C@H](O)[C@H](O)[C@H]2O)[C@H](O)[C@H]1O)NC(=O)[C@H](CCCCN)NC(=O)[C@H](CC(C)C)NC(=O)[C@H](C)NC(=O)[C@H](CCCCN)NC(=O)[C@H](CCC(=O)O)NC(=O)C(C)(C)NC(=O)[C@H](CC(C)C)NC(=O)[C@H](CC(N)=O)NC(=O)[C@@H]1CCCN1C(=O)[C@H](CC(C)C)NC(=O)[C@H](Cc1ccccc1)NC(=O)CNC(=O)[C@H](NC(=O)[C@@H](N)Cc1ccc(O)cc1)[C@H](C)O)C(N)=O	OPRD1	ligand displacement, radioligand		pH 7.5, cell membranes	Ki	0.019 µM
CC(C)C[C@@H]1NC(=O)[C@H](CCCNC(=N)N)NC(=O)[C@@H]2CCCN2C(=O)[C@@H]2CSSC[C@H](NC(=O)CNC(=O)[C@@H]3CCCN3C(=O)[C@H](CCCCN)NC(=O)[C@H](CC(=O)O)NC(=O)[C@@H](NC(=O)CN)C(C)C)C(=O)N[C@@H](CCCNC(=N)N)C(=O)N[C@@H](Cc3ccc(O)cc3)C(=O)N[C@@H](CC(C)C)C(=O)N[C@@H](Cc3ccccc3)C(=O)NCC(=O)NCC(=O)N[C@H]3CSSC[C@H](NC(=O)CNC1=O)C(=O)N[C@@H](CCCCN)C(=O)NCC(=O)N[C@@H](CCCCN)C(=O)NCC(=O)N[C@@H](Cc1c[nH]cn1)C(=O)N[C@@H](CC(=O)O)C(=O)N[C@@H](Cc1ccc(O)cc1)C(=O)N[C@H](C(=O)N[C@@H](C)C(=O)N[C@@H](Cc1c[nH]c4ccccc14)C(=O)N[C@@H](CC(=O)O)C(=O)NCC(=O)N[C@H](C(=O)N[C@@H](Cc1ccccc1)C(=O)N[C@@H](CO)C(=O)N[C@@H](CC(=O)O)C(=O)O)[C@@H](C)O)CSSC[C@H](NC(=O)[C@H](CC(=O)O)NC(=O)[C@H](CC(=O)O)NC(=O)[C@H](CC(=O)O)NC(=O)[C@H](CO)NC(=O)[C@H](CCCCN)NC3=O)C(=O)N2	Sodium channel protein type 10 subunit alpha (SCN10A, Homo sapiens, UniProt Q9Y5Y9)	sodium current, potentiator		holding potential -80 mV	EC50	1.1 ± 0.1 µM
